Experimental data collected from several papers.
Numbered parts are unrelated; each lists some results of a single study.

Study 1
Target: TAR DNA-binding protein 43, full length, His tag (TARDBP, Homo sapiens, UniProt Q13148, residues 1-414)
Method: RNA Bind-n-Seq
Form: RNA
Sample: in vitro
Concentration: 20 nM
Notes: 6-mer, flanks averaged, single round
Added: 150 mM KCl
Reference: input library
Reading: higher = stronger binding
`CGGGGU`: “6-mer enrichment (R)” 3.46.
`UUGAGA` — result for “6-mer enrichment (R)”: 0.801.
For `UGGCCG`, “6-mer enrichment (R)” read 1.36.
For `GCGCGC`, “6-mer enrichment (R)” read 1.49.
Under “6-mer enrichment (R)”, `UAGAGG` is recorded as 1.75.
Under “6-mer enrichment (R)”, `AAAUAG` is recorded as 0.693.
For `GCUUCG`, “6-mer enrichment (R)” read 0.79.
`GCCUUU`: “6-mer enrichment (R)” 0.683.
Under “6-mer enrichment (R)”, `UUGUUG` is recorded as 0.812.
`AAUUGA` — result for “6-mer enrichment (R)”: 0.659.
`GCCUGC`: “6-mer enrichment (R)” 0.862.
Under “6-mer enrichment (R)”, `GGGCAC` is recorded as 2.31.
Under “6-mer enrichment (R)”, `UCUCCU` is recorded as 0.575.
For `GCACCC`, “6-mer enrichment (R)” read 0.789.
`UAAUGA` — result for “6-mer enrichment (R)”: 0.686.
`GUGUUA`: “6-mer enrichment (R)” 0.928.

Study 2
Target: Sal-like protein 4, full length isoform A (SALL4, Homo sapiens, UniProt Q9UJQ4, residues 1-1053)
UniProt Q9UJQ4, sequence (whole entry, looked up): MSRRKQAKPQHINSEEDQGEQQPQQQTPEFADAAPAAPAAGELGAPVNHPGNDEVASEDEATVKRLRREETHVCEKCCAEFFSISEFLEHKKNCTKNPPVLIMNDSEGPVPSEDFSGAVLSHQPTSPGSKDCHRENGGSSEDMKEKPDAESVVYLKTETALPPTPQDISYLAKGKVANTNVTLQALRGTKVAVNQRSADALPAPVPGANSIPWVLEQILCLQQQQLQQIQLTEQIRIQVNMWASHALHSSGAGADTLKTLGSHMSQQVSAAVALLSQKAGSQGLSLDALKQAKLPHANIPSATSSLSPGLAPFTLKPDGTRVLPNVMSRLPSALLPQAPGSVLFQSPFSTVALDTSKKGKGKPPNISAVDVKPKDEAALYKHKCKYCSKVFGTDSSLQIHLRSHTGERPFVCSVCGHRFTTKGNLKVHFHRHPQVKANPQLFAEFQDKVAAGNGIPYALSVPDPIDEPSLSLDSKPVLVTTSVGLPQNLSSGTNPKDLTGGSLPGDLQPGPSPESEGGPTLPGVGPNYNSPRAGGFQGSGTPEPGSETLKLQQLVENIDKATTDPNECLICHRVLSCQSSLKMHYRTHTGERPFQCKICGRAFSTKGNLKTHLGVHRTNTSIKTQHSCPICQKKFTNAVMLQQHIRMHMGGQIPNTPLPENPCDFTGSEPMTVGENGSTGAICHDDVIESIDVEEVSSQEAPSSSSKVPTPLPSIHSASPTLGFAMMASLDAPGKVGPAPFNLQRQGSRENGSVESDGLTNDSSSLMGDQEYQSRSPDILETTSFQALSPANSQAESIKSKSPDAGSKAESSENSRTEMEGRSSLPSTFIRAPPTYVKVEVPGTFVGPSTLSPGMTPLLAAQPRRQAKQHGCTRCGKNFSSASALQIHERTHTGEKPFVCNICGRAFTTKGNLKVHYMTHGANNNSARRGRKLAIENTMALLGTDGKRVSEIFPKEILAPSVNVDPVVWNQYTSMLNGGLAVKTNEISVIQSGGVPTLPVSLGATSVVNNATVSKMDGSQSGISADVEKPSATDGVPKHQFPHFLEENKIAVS
Method: universal PBM
Form: double-stranded DNA, one strand shown
Sample: in vitro
Concentration: 600 nM
Notes: 8-mer, flanks averaged, mean of replicates
Reading: higher = stronger binding
The E-score of `AGTTGGGG` is reported as -0.137.
With `CCTTCAAC` the E-score was 0.00396.
The E-score of `ACACGTCT` is reported as -0.0042.
The E-score of `AAGTTGGC` is reported as 0.00245.
The E-score of `ATTTCAGG` is reported as 0.076.
`TTAGCTAA` has an E-score of 0.147.
For `AACCACTA`, the E-score was 0.147.
The E-score of `GTAATTAA` is reported as 0.316.
For `TTAGTAAA`, the E-score was 0.237.
`GTTGGTGA` has an E-score of -0.0851.
With `CTGATTCA` the E-score was 0.0604.
For `ACACTACC`, the E-score was -0.172.
With `TCTACTCA` the E-score was 0.0467.
With `ACCGGGAA` the E-score was -0.0341.
`ACACACAT` gave an E-score of 0.215.
The E-score of `ACACGAGC` is reported as -0.0634.
For `CGAACTAC`, the E-score was -0.0771.
With `CGACGGCG` the E-score was -0.312.
With `AAGAGGAT` the E-score was 0.0508.
The E-score of `AACTCTCC` is reported as -0.0435.
For `AAGATAGA`, the E-score was 0.087.
The E-score of `AACGCTAC` is reported as 0.0336.
With `GCTCACCC` the E-score was -0.277.
With `CCTTTCTA` the E-score was 0.0954.
`AAGCCCCT` gave an E-score of -0.21.

Study 3
Target: RNA binding protein fox-1 homolog 2, RRM domain, GST-SBP tag (RBFOX2, Homo sapiens, UniProt O43251-10, residues 100-194)
Method: RNA Bind-n-Seq
Form: RNA
Sample: in vitro
Concentration: 365 nM
Notes: natural RNA segment, single round, ends assumed
Reference: no-protein control
Reading: higher = stronger binding
Target sequence (chain): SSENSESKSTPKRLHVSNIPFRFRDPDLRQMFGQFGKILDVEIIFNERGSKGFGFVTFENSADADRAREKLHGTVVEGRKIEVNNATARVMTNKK
Under “RBNS enrichment (R)”, `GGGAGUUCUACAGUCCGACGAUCUAAAAGUGAAAUUAACCUCCUGCCAAUUUUACAACCCAAGAAUUUUUUUUUAAGGGCCUUGGAGCCAUCUCUAAAACAAACCUCAAGGGAUUUAGUGCCCUGUCUCCCUGUGGAAUUCUCGGGUGCCAA` is recorded as 0.563.
`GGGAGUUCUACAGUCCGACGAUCUACACCAAUUCUUUCUACUAAAUUGAGCUCUAUUUGAAGUUCUUUGGAAUCUGUGGUGAAAAAUAAUUUUCUGAUUUCCAAAUACAUUAAGAGCAUUAAAUGAAUAUUAAUGGAAUUCUCGGGUGCCAA` — result for “RBNS enrichment (R)”: 0.977.
`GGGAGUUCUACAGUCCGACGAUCUGCAGUGGUUCCUAGGCCAUUCUUCAUCUGCUCUGGACAUCUCAGUCAUACCCAAUGCUCAGUGGAUCAUGACCAAACUCCUGUCAUGUGGAUGCACGUGAGUGGGUAGCUGGAAUUCUCGGGUGCCAA` — result for “RBNS enrichment (R)”: 0.814.
Under “RBNS enrichment (R)”, `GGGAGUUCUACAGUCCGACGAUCCCACCCUCACAGUUCUAACUUAGCAAGUGCUUUUCUUUAGAACCCCUUCUUAACGAGCAAUAUGUCUGACCUGUACUAUAAGAUCUUUCUGAUAACGCAGAGAUUUUUUGUGGAAUUCUCGGGUGCCAA` is recorded as 0.463.
For `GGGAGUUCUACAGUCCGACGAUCCCCGUUCUAAUCGUCACCGCUCCUCCAGGUCUCCUAAUCUGGAUUCCACUACACCUCAUACUCUGGAGACAUGAGUAUUCCUCAUUUUUCCCAGAAGAAUCAUGGAAGGAUGGAAUUCUCGGGUGCCAA`, “RBNS enrichment (R)” read 0.314.
Under “RBNS enrichment (R)”, `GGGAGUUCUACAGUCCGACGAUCGCUCAGCAAGCCUUCUAAAAAGACUUCCCUUUUCUUGGGGUAUGGCUGUCUCAGCACAAUACUCGACAUAACUGCAGAGCUGAUGUGGCUCAGGCACCCUGGUUUUAAUCUGGAAUUCUCGGGUGCCAA` is recorded as 0.436.
For `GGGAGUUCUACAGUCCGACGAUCAAAUGGGUAUGCAAGGCUGAGAUUUCUACAGCAAUAAAGGAGACACACACUGGGCCAGAGAGGCCUGCCUUCUGCCUGCUCUCCUGCACUGACCCUUUGGAGGGGGUCUCUGGAAUUCUCGGGUGCCAA`, “RBNS enrichment (R)” read 0.712.
`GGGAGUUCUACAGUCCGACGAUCGCUUCUACUGCUAACUGCUGUAUUCUGUAUAUACUGUGCCACCCUGUGUGGAGUCUGUGAGUGUGCUCUUGAGUAGCGUGGGCUAGCCAAUCUGCCAUUCAUGGUGUUAUUGGAAUUCUCGGGUGCCAA` — result for “RBNS enrichment (R)”: 0.323.
`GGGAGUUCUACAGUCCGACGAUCUUUAUCACAACUGACUACUGGACCAGGGCCCAGAAAUGUGGGUCAAGUUACAUGUGAAUUUGUUUGGUGAAGAAGGGAAGCUGGGAUGGUAACAGAGCGUCACCACAUAGUGGAAUUCUCGGGUGCCAA` — result for “RBNS enrichment (R)”: 0.323.
For `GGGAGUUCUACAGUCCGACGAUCUGAGGAGUGUGAACUGUUGGGGUCAGUUAAGACCCAACAUAACUCUAUCAGAAGAAAACUGUUGUUUGCCUUUCAACCUUGUUUUACAGUUCUGCAGUGUAAUGGAGGACUGGAAUUCUCGGGUGCCAA`, “RBNS enrichment (R)” read 0.258.
For `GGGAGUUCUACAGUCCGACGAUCUUAUCAAGUAUCCUGUAUGUGUUCCUUUGUAAACCGGUACUCAUGAAUGAGGGAAAGUCUGAUGCUAAGAUACUGCCUGCACUGGAAUGUCAAACACUAUAUAACAAGCUUGGAAUUCUCGGGUGCCAA`, “RBNS enrichment (R)” read 5.19.
`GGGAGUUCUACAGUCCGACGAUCCAUGAAUUGGGUAAGCUGGUUUGUUUGACUAGGAAACGGUUCCACAGAGUAUUUGCCACAAGAGGAGAGUAUCCCUCCAGCAAAUAAAAGCAAGUUAGAACGGGCUGGAUUGGAAUUCUCGGGUGCCAA` — result for “RBNS enrichment (R)”: 1.58.

Study 4
Target: Histone acetyltransferase KAT6A, winged helix 2, GST fusion (KAT6A, Homo sapiens, UniProt Q92794, residues 85-181)
Method: protein binding microarray
Form: double-stranded DNA, one strand shown
Sample: in vitro
Concentration: not given
Notes: 8-mer, flanks averaged, mean of 2 arrays, mostly near background
Reference: not given
Reading: higher = stronger binding
Residues (chain): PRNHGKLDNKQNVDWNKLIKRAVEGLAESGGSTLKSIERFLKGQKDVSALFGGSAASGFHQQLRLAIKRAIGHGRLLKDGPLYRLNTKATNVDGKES
With `TATAACAA` the E-score was 0.0649.
The E-score of `CCGGCAAA` is reported as 0.169.
The E-score of `AATGACGC` is reported as -0.115.
For `CTGGATAC`, the E-score was 0.019.
`ATCCGAGC` gave an E-score of 0.0251.
The E-score of `TCATCCAA` is reported as 0.0291.
For `CCCCCGTC`, the E-score was -0.0697.
`GAAAAAGC` gave an E-score of 0.108.
The E-score of `TAATCCGA` is reported as -0.0373.
The E-score of `CTCAATAC` is reported as 0.0046.
`ACGACAGA` gave an E-score of -0.0131.
`AGGAGTCG` gave an E-score of -0.213.
With `GCGTGGTA` the E-score was -0.049.
With `GCGAAGTA` the E-score was -0.00277.
The E-score of `ACCCTGAC` is reported as -0.131.
`AACGACGT` gave an E-score of -0.127.
For `GATAATGA`, the E-score was 0.032.
The E-score of `GAGTGGCC` is reported as 0.0503.
The E-score of `CCAATAAA` is reported as -0.0754.
The E-score of `CACAGCTG` is reported as -0.141.
For `ATGCAAAA`, the E-score was 0.13.
With `GGCGGCCC` the E-score was 0.131.
`ATAATCAT` has an E-score of -0.0159.
`GTCTTACA` has an E-score of -0.21.
`CCGTGGGA` gave an E-score of 0.104.

Study 5
Target: Prothrombin, mature alpha-thrombin (F2, Homo sapiens, UniProt P00734)
Method: aptamer microarray, sandwich
Form: DNA with 2'F-ANA
Sample: in vitro
Concentration: 200 nM
Notes: whole 15-mer aptamer, many near background
Added: Cy3 exosite-II aptamer, 400 nM
Reading: higher = stronger binding
Sequence: GGTTGGTGTGGTTGG
Under “mean fluorescence intensity”, `2'F-ANA at 2 3 4 6 7 8 10 11 14` is recorded as 179 a.u.
`2'F-ANA at 1 4 5 8 9 11 12 13`: “mean fluorescence intensity” 77.9 a.u.
`2'F-ANA at 1 2 3 4 8 9 12`: “mean fluorescence intensity” 407 a.u.
For `2'F-ANA at 3 4 5 6 7 9 12 14`, “mean fluorescence intensity” read 52.2 a.u.
`2'F-ANA at 1 2 6 7 8 10 12 14`: “mean fluorescence intensity” 47.4 a.u.
`2'F-ANA at 1 2 4 5 9 10 11 12 13`: “mean fluorescence intensity” 49.9 a.u.
`2'F-ANA at 1 3 7 8 9 10 11 13 14` — result for “mean fluorescence intensity”: 76.4 a.u.
Under “mean fluorescence intensity”, `2'F-ANA at 2 3 4 7 9 11 14 15` is recorded as 280 a.u.
`2'F-ANA at 3 5 6 7 8 11 13 15`: “mean fluorescence intensity” 89.9 a.u.
Under “mean fluorescence intensity”, `2'F-ANA at 3 4 5 6 9 10 11 13 14` is recorded as 62.4 a.u.
`2'F-ANA at 1 2 4 5 6 7 10 11 13 14`: “mean fluorescence intensity” 76 a.u.
`2'F-ANA at 3 5 6 7 9 13` — result for “mean fluorescence intensity”: 80.8 a.u.
`2'F-ANA at 2 4 5 6 7 9 10 11 12 14 15` — result for “mean fluorescence intensity”: 48.5 a.u.
Under “mean fluorescence intensity”, `2'F-ANA at 2 3 4 5 6 7 9 11 12 13 14` is recorded as 71.5 a.u.
For `2'F-ANA at 2 4 5 7 9 14 15`, “mean fluorescence intensity” read 45.9 a.u.
`2'F-ANA at 2 3 4 5 9 12 13`: “mean fluorescence intensity” 133 a.u.
`2'F-ANA at 1 2 4 5 6 8 9 11 13 14 15`: “mean fluorescence intensity” 50.7 a.u.
For `2'F-ANA at 5 6 7 9 10 11 15`, “mean fluorescence intensity” read 62.3 a.u.
Under “mean fluorescence intensity”, `2'F-ANA at 1 2 3 5 9 10 12 13 14 15` is recorded as 51 a.u.
For `2'F-ANA at 2 5 8 10 12 14`, “mean fluorescence intensity” read 68.5 a.u.
`2'F-ANA at 2 6 7 9 10 13 15` — result for “mean fluorescence intensity”: 112 a.u.
For `2'F-ANA at 1 2 3 4 7 8 11 12 15`, “mean fluorescence intensity” read 329 a.u.
For `2'F-ANA at 4 6 7 15`, “mean fluorescence intensity” read 308 a.u.

Excerpt of the above (study 2):
For `CGAACTAC`, the E-score was -0.0771.
The E-score of `GTAATTAA` is reported as 0.316.
For `AACCACTA`, the E-score was 0.147.
With `CCTTTCTA` the E-score was 0.0954.
For `ACACTACC`, the E-score was -0.172.
The E-score of `AACGCTAC` is reported as 0.0336.
With `AAGAGGAT` the E-score was 0.0508.
With `ACCGGGAA` the E-score was -0.0341.
With `CTGATTCA` the E-score was 0.0604.
The E-score of `AGTTGGGG` is reported as -0.137.
The E-score of `AACTCTCC` is reported as -0.0435.
The E-score of `ACACGAGC` is reported as -0.0634.
For `AAGATAGA`, the E-score was 0.087.
`ACACACAT` gave an E-score of 0.215.
The E-score of `ACACGTCT` is reported as -0.0042.
